Experimental data from different studies.
Every numbered part comes from another study and shows a few of its results, in no order.
UniProt O75676, sequence (whole entry, looked up): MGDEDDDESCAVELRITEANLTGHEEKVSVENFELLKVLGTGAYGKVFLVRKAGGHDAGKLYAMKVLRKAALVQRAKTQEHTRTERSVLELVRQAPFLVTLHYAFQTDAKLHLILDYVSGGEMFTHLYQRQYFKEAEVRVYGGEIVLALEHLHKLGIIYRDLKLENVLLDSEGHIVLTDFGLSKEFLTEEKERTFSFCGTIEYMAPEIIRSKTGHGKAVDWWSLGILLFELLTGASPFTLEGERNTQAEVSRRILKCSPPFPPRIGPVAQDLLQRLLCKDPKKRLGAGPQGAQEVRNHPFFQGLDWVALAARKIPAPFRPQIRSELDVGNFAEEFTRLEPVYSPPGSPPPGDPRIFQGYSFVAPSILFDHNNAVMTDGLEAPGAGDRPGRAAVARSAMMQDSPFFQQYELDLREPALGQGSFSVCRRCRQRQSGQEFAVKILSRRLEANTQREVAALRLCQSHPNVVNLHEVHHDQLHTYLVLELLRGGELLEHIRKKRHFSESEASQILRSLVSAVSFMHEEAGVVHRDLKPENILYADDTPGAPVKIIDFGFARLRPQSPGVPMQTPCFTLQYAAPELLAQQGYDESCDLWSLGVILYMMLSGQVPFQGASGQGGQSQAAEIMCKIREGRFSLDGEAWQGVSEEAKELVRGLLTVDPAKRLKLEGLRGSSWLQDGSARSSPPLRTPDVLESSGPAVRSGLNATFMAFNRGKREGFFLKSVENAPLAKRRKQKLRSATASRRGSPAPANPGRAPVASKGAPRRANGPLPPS
UniProt O00238, sequence (whole entry, looked up): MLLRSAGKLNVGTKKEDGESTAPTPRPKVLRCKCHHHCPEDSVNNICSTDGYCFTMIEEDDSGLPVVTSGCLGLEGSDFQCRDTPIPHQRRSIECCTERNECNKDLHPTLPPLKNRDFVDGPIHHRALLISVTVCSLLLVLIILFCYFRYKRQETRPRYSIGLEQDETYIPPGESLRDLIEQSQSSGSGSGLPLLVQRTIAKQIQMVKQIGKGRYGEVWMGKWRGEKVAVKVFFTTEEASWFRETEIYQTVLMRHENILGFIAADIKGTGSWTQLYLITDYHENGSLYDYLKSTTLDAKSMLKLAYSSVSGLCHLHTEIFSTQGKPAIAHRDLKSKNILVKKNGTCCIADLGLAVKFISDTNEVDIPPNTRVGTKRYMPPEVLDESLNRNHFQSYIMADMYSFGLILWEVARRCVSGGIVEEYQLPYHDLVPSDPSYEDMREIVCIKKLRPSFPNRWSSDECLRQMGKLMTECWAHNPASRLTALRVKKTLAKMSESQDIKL
UniProt Q9H1R3, sequence (whole entry, looked up): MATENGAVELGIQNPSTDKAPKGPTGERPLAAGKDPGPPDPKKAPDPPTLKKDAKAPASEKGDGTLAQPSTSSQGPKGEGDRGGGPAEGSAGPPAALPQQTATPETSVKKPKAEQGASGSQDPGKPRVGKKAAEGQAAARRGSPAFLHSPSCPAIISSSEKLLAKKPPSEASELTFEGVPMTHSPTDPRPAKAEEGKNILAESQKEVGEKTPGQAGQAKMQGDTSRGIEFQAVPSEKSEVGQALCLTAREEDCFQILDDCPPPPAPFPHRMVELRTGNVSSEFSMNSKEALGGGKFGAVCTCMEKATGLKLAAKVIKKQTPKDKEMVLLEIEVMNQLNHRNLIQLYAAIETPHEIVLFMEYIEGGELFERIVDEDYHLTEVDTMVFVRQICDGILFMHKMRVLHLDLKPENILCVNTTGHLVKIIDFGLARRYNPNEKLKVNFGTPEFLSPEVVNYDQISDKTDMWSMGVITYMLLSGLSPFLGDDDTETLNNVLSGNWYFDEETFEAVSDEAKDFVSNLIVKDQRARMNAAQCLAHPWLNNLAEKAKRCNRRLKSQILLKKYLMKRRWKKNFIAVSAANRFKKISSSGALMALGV
UniProt P57059, sequence (whole entry, looked up): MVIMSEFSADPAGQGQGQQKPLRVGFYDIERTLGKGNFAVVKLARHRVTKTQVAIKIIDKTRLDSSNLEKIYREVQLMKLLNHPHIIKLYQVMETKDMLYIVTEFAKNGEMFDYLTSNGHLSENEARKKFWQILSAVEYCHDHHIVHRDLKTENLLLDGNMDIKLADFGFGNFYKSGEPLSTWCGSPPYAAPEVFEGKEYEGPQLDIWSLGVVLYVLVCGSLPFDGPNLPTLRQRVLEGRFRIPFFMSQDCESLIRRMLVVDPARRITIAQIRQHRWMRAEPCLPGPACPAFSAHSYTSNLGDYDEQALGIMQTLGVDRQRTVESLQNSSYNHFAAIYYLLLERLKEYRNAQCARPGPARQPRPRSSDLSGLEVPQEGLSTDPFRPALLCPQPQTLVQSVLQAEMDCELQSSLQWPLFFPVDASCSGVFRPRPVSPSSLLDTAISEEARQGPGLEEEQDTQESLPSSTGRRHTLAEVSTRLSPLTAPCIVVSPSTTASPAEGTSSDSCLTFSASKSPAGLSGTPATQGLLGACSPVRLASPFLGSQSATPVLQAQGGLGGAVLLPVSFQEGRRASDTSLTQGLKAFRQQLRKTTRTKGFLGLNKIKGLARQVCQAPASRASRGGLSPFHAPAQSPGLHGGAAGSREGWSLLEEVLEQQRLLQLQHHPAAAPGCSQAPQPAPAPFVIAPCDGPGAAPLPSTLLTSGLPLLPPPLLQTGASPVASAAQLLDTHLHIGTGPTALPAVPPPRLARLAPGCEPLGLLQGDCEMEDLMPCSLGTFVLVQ
UniProt Q14680, sequence (whole entry, looked up): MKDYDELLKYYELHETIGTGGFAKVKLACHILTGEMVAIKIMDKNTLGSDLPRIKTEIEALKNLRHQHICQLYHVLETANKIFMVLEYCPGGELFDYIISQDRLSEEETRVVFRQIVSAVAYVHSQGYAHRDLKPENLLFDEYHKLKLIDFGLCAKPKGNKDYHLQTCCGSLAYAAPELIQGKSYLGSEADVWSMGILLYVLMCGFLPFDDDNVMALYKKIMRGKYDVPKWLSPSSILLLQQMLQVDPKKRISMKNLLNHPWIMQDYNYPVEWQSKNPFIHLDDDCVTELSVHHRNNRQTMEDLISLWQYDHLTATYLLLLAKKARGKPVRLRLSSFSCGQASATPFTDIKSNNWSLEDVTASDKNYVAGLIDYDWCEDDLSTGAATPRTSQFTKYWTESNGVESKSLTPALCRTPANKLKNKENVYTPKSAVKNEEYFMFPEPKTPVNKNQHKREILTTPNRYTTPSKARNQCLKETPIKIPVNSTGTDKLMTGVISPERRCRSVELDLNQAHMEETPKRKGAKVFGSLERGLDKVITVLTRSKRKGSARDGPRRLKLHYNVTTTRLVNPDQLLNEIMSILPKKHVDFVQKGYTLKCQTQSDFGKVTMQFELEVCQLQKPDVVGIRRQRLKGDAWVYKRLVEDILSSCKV

Study 1 — observed: enzyme activity; action: inhibitor; concentration: 0.5 µM; reference: control
Target: Calcium/calmodulin-dependent protein kinase type II subunit gamma (CAMK2G, Homo sapiens, UniProt Q13555)
UniProt Q13555, sequence (whole entry, looked up): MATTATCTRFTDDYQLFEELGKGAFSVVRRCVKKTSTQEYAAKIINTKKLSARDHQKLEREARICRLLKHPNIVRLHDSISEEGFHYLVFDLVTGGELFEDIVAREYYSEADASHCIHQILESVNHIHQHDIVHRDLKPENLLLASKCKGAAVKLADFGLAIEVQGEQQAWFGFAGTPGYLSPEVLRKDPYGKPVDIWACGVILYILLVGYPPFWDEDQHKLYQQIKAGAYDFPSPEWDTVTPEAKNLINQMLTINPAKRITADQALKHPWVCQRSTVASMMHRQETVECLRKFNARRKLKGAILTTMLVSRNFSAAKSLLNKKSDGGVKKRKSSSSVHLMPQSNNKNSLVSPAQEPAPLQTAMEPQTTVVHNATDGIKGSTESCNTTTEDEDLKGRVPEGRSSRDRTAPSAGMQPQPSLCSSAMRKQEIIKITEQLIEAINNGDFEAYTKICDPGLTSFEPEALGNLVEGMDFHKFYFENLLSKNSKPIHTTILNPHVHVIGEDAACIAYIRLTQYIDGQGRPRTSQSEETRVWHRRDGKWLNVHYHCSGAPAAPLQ
The remaining activity of `COc1ccc2c(c1)c(C1=C(c3c[nH]c4ccccc34)C(=O)NC1=O)cn2CCCN(C)C` is reported as 91.1%.
For `O=C1NC(=O)c2c1c1c3ccccc3[nH]c1c1[nH]c3cc(Br)ccc3c21`, the remaining activity was 99.5%.
The remaining activity of `O=C1Cc2c([nH]c3ccc(Br)cc23)-c2ccccc2N1` is reported as 116%.
With `CN(C)S(=O)(=O)c1ccc2c(c1)/C(=C/c1cc3c([nH]1)CCCC3)C(=O)N2` the remaining activity was 98.9%.
For `N#Cc1cnc2cnc(NCc3cccnc3)cc2c1Nc1ccc(F)c(Cl)c1`, the remaining activity was 91.2%.
The remaining activity of `CCCNC(=O)Nc1ccc(Oc2ncnc3cc(OC)c(OC)cc23)cc1Cl` is reported as 90.5%.
With `Oc1cccc(-c2nc(N3CCOCC3)c3oc4ncccc4c3n2)c1` the remaining activity was 100%.
`CCCCc1c(-c2ccc(OC)cc2)[nH]c2nccnc12` gave a remaining activity of 107%.
The remaining activity of `c1ccc(-c2n[nH]c3c2oc2ccccc23)cc1` is reported as 93.3%.
For `COc1cccc(-c2cc(=O)c3ccccc3o2)c1N`, the remaining activity was 96.6%.
`O=C1Nc2ccc(Br)cc2/C1=C/c1cc2c([nH]1)CCCC2` has a remaining activity of 92.4%.
With `CN1CCN(c2ccc3nc(-c4c(N)c5c(F)cccc5[nH]c4=O)[nH]c3c2)CC1` the remaining activity was 97.6%.

Study 2 — concentration: 1 µM
Compound: N#CC1(c2ccccn2)CCN(Cc2cc(C(=O)N3CCCC3)c(=O)n3ccccc23)CC1
The remaining binding was 94% (Epidermal growth factor receptor (EGFR, Homo sapiens, UniProt P00533, A750P/del747-749); cell-free assay, competition with immobilised ligand).
It gave 98% for remaining binding (Dual specificity mitogen-activated protein kinase kinase 6 (MAP2K6, Homo sapiens, UniProt P52564); cell-free assay, competition with immobilised ligand).
It gave 100% for remaining binding (Serine/threonine-protein kinase SIK2 (SIK2, Homo sapiens, UniProt Q9H0K1); cell-free assay, competition with immobilised ligand).
It gave 78% for remaining binding (Maternal embryonic leucine zipper kinase (MELK, Homo sapiens, UniProt Q14680); cell-free assay, competition with immobilised ligand).
It gave 77% for remaining binding (Epidermal growth factor receptor (EGFR, Homo sapiens, UniProt P00533, del747-750/T751S); cell-free assay, competition with immobilised ligand).
For Ribosomal protein S6 kinase alpha-4, N-terminal kinase domain (RPS6KA4, Homo sapiens, UniProt O75676); cell-free assay, competition with immobilised ligand: remaining binding read 79%.
The remaining binding was 100% (Ribosomal protein S6 kinase alpha-3, C-terminal kinase domain (RPS6KA3, Homo sapiens, UniProt P51812); cell-free assay, competition with immobilised ligand).
It gave 100% for remaining binding (Serine/threonine-protein kinase SIK1 (SIK1, Homo sapiens, UniProt P57059); competition binding).
It gave 100% for remaining binding (Serine/threonine-protein kinase DCLK2 (DCLK2, Homo sapiens, UniProt Q8N568); cell-free assay, competition with immobilised ligand).
For Aurora kinase C (AURKC, Homo sapiens, UniProt Q9UQB9); cell-free assay, competition with immobilised ligand: remaining binding read 88%.
Myosin light chain kinase 2, skeletal/cardiac muscle (MYLK2, Homo sapiens, UniProt Q9H1R3); cell-free assay, competition with immobilised ligand — remaining binding: 87%.
It gave 89% for remaining binding (Tyrosine-protein kinase Fer (FER, Homo sapiens, UniProt P16591); cell-free assay, competition with immobilised ligand).
Non-receptor tyrosine-protein kinase TYK2, JH1 (TYK2, Homo sapiens, UniProt P29597); cell-free assay, competition with immobilised ligand — remaining binding: 91%.
The remaining binding was 95% (Bone morphogenetic protein receptor type-1B (BMPR1B, Homo sapiens, UniProt O00238); cell-free assay, competition with immobilised ligand).

Study 3 — cell line: mouse MPNST tumor cells; method: high-content nuclear imaging; measured: cell number; concentration: 10 µM; time: 12 h; notes: mean of 2 replicates; reference: plate mean; direction: higher = more cells
For `CC/C(=C(\c1ccccc1)c1ccc(OCCN(C)C)cc1)c1ccccc1`, the nuclei count was -6.32 z-score.
`Cc1ccc(C(=O)c2ccc(CC(=O)O)n2C)cc1` has a nuclei count of 0.491 z-score.
`CC(=O)OCC(=O)[C@@]12N=C(C)O[C@@H]1C[C@H]1[C@@H]3CCC4=CC(=O)C=C[C@]4(C)[C@H]3[C@@H](O)C[C@@]12C` has a nuclei count of 2.43 z-score.
`COc1cc(N)c(Cl)cc1C(=O)OCCN1CCCCC1` gave a nuclei count of -1.29 z-score.
The nuclei count of `CC[C@H](CO)Nc1nc(NCc2ccccc2)c2ncn(C(C)C)c2n1` is reported as 1.14 z-score.
The nuclei count of `Cc1ncsc1-c1ccc(CNC(=O)[C@@H]2C[C@@H](O)CN2C(=O)[C@@H](NC(=O)C2(C#N)CC2)C(C)(C)C)cc1` is reported as 1.48 z-score.
`Nc1ncn([C@@H]2O[C@H](CO)[C@@H](O)[C@H]2O)c(=O)n1` has a nuclei count of -2.43 z-score.

Study 4 — Structure (SMILES): C=CCc1ccc(O)c(-c2ccc(O)c(CC=C)c2)c1; observed: chloride current; method: whole-cell voltage clamp
ANO1 del476-501/L548A: Anoctamin-1 (ANO1, Homo sapiens, UniProt Q5XXA6, del476-501/L548A)
UniProt Q5XXA6, sequence (whole entry, unmodified, looked up): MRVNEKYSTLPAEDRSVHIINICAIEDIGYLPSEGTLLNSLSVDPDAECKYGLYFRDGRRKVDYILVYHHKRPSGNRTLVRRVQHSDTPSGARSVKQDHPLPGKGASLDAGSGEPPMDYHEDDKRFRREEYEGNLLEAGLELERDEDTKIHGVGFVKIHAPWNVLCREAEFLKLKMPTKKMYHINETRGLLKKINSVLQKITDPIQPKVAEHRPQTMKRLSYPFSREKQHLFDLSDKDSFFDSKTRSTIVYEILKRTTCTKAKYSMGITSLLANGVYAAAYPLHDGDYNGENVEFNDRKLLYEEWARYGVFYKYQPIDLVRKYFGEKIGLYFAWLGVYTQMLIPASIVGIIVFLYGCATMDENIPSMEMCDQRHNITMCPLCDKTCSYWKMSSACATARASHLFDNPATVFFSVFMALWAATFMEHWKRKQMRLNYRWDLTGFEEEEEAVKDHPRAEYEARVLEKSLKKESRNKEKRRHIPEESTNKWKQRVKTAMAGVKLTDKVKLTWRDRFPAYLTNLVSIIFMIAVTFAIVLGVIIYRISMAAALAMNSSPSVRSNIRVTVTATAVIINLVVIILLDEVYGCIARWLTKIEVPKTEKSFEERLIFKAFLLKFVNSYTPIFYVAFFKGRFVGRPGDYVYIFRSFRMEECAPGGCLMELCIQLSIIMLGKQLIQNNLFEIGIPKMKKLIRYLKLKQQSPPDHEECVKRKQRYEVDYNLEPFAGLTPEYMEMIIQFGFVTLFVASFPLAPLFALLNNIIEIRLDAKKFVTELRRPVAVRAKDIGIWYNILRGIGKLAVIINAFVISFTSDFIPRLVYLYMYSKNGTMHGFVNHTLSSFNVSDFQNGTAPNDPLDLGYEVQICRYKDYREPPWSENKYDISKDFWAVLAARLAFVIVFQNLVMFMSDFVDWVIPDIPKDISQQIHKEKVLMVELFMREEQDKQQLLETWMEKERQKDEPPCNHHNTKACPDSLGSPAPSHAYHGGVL
ANO1 del476-501/F807I: Anoctamin-1 (ANO1, Homo sapiens, UniProt Q5XXA6, del476-501/F807I)
It gave 21.1 µM for IC50 (Anoctamin-1 (ANO1, Homo sapiens, UniProt Q5XXA6, del476-501/R631K); inhibitor; R605K mutant at -100 mV).
It gave 5.69 µM for IC50 (ANO1 del476-501/L548A; membrane voltage 40 mV).
For Anoctamin-1 (ANO1, Homo sapiens, UniProt Q5XXA6, del476-501/F646A); membrane voltage -20 mV: IC50 read 4.54 µM.
The IC50 was 9.41 µM (ANO1 del476-501/F807I; inhibitor; F781I mutant at -60 mV).
It gave 6.39 µM for IC50 (Anoctamin-1 (ANO1, Homo sapiens, UniProt Q5XXA6, del476-501/F627A); membrane voltage 40 mV).
ANO1 del476-501/F807I; inhibitor; F781I mutant at -80 mV — IC50: 14.8 µM.
The IC50 was 6.2 µM (ANO1 del476-501/L548A; membrane voltage 100 mV).

Excerpt of the above (study 2):
The remaining binding was 100% (Ribosomal protein S6 kinase alpha-3, C-terminal kinase domain (RPS6KA3, Homo sapiens, UniProt P51812); cell-free assay, competition with immobilised ligand).
It gave 77% for remaining binding (Epidermal growth factor receptor (EGFR, Homo sapiens, UniProt P00533, del747-750/T751S); cell-free assay, competition with immobilised ligand).
It gave 100% for remaining binding (Serine/threonine-protein kinase SIK1 (SIK1, Homo sapiens, UniProt P57059); competition binding).
For Ribosomal protein S6 kinase alpha-4, N-terminal kinase domain (RPS6KA4, Homo sapiens, UniProt O75676); cell-free assay, competition with immobilised ligand: remaining binding read 79%.
The remaining binding was 95% (Bone morphogenetic protein receptor type-1B (BMPR1B, Homo sapiens, UniProt O00238); cell-free assay, competition with immobilised ligand).
